Published values of several laboratories.
A part holds a random share of what one study measured. Changes are numbered by the printed parent chain.

Study 1
Target: CEP164, C-terminal peptide (human)
Technique: DHFR complementation, deep sequencing
Matrix: yeast
Setting: single substitutions, model-inferred values
Reference: wild type
Reading: higher = weaker binding
Starting sequence: PDZK1, PDZ domain 2 (human); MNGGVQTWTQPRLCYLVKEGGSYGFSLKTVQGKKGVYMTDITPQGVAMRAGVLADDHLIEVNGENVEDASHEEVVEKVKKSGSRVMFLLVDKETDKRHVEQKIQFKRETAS; partner HNRVKVYRF
Variant	binding free energy change [kcal/mol]
R97T	-0.081
L27W	0.563
L88M	-0.108
M1T	-0.121
G51V	1.16
V90Y	-0.00352
D56N	0.459
V61H	1.02

Study 2
Target: RNA binding protein fox-1 homolog 2, RRM domain, GST-SBP tag (RBFOX2, Homo sapiens, UniProt O43251-10, residues 100-194)
Technique: RNA Bind-n-Seq
Molecule type: RNA
Matrix: in vitro
Tested at: 365 nM
Setting: natural RNA segment, single round, ends assumed
Reference: no-protein control
Reading: higher = stronger binding
Constant ends, left off below: GGGAGUUCUACAGUCCGACGAUC … UGGAAUUCUCGGGUGCCAA
Construct (chain): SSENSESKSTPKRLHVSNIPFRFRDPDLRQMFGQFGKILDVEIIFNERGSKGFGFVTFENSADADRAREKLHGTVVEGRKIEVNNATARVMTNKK
Sequence	RBNS enrichment (R)
GGGGAGACCUCUACUGCCUUGGACAACUUUUCUCAUGUUGAAGCCACUGCCUUCACCUUCACCUUCAUCCAUGUCCAACCCCCGACUUCAUCCCAAAGGACAGCCGCCUG	0.594
UCAAGACUACAGAAAGGUUUGAAGUAGUGUGUGCAUGGCAUGCACGUAUGUAAGUAAUCUGGGGAAGAAGCAAAGAUCUGUUUCAUUCUUAGCCUCAGGCCUCAUGAGGG	0.81
UUUGUGUGGCUUCUGGCCUAGCUUUUCAGAUGAGCCGCCUGGAUUUUUACCUGGCCUGUUCUGAUAAAGAGGCAUUUAUUAGCCAAGCAACCAUAAGACUCUAGUCAAAA	0.292
CUUACAGAGCUAAGAAUCCAUAGCCAUGGCUCUGUAAGCUAAACCUGAAGAGUGAUAUUUGUACAAUAGCUUUCUUCUUUAUUUAAAUAAACAUUUGUAUUGUAGUUGGG	0.497
UAUUAAGAAGGCACUUAAUAGUACAUCAUGUAAGAUGGCAACUGUAUUAAAGAAAAAUCCGGAAAACAAAUGUUUGAUUUUUGUUUUUGUUUUUAUCUUGUCUGUAGAGG	0.992
UCAGUCCUUGCUGUUGAUGGAGCUGGGAGGAGGAGGGACCUAAGGACUCAGGACAGAGCAUCUCACGCGAAGUUCUGUGUGGCAGUCAAGUGUUCCUCGUGGAGUCAGCC	0.284
AGGCCACUGGCCCCGCAGCCCUUGGGAGGCCCCCGUGGAUGUGGCCCUGUGUGGGACCACACUGUCAUCUCGCUGCUGGCAGAAAAGCCUGAUCCCAGGAGGCCCUGCAG	0.646
UUAGAGUCCUGGAGUGACCACAGCCCCUGCCCCCUGUCCCUGAGAGGUACAAGAGCCUGUUUACCUCAUAGAGUGUUUGGGCUCGGAAGUAAAAGUGAAGUUAUUUUGAA	0.43

Other studies, line by line
Substance	target or system	assay	test system	conditions	scale	quantity	result
Cc1ccc(NC(=O)c2ccc(CN3CCN(C)CC3)cc2)cc1Nc1nccc(-c2cccnc2)n1	FGR (Homo sapiens, UniProt P09769)	enzyme activity, inhibitor		0.5 µM	reference: control	remaining activity	80.1%
GLO1 (Homo sapiens, UniProt Q04760)	WDR72 (Homo sapiens, UniProt Q3MJ13)	cross-linking MS	cell fractions	with: DSSO		cross-linked residues	K88 to K781
